# Measured values of several laboratories.
# Each line is one published result; not all experiments were run side by side. Numbers after ± are the reported error.
SMILES,cell line,assay,conditions,IC50 [µM]
CCCCCCCCSc1nc(N)c2c(F)c(C#N)c(F)c(Cl)c2n1,SGC-7901,"cell growth or viability, MTT",96 h,> 100
CN1CCN(C(=O)N(CCCCCCC(=O)NO)c2ccc(-c3ccc4cnn(C)c4c3)cc2)CC1,HH,"cell growth or viability, ATP luminescence",72 h,0.0329
C[N+]1(C)CC[NH2+][Pt-2]1([OH])([Cl])([Cl])[O]C(=O)CCC(=O)OCCO,SW1573,cell growth or viability,96 h,134
Cc1nc(-c2ccc(Cl)cc2)nc(N2CCC(C)(N)CC2)c1Cc1ccccc1,AGS,"cell growth or viability, WST-1",72 h,6.5
CC(C)c1cccc(C(C)C)c1-n1c2c([n+](-c3c(C(C)C)cccc3C(C)C)[c]1[Cu-][Cl])-c1cccc3cccc-2c13,CHO,"cell growth or viability, MTT",72 h,1.5
N#Cc1cccc(-c2ccc(=O)n(Cc3cccc(-c4ncc(OCC5CCN(CC(=O)N6CCN(CCNc7ccc8c(c7)C(=O)N(C7CCC(=O)NC7=O)C8=O)CC6)CC5)cn4)c3)n2)c1 (stereo not drawn),Hs746T,"cell growth or viability, CCK-8",72 h,0.00388
OC[C@H]1[C@@H](O)[C@@H](O)CN1Cc1ccc(Br)cc1,HCT116 p53-/-,MTS,72 h,> 200
CCCC(CCC)C(=O)[O][Pt]1([O]C(=O)C(CCC)CCC)[O]C(=O)C(=O)[O]1.NC1CCCCC1N,seven cancer cell lines,cytotoxicity,mean over panel,10.9
CCCCSc1nc(N)c2c(F)c(C#N)c(F)c(Cl)c2n1,SGC-7901,"cell growth or viability, MTT",96 h,30.4
C=C1CC[C@@H]2O[C@@]2(C)CC[C@H]2[C@H]1C[C@]2(C)C(=O)/C=C/C(C)(O)COC(C)=O (stereo partly drawn),KPC,"cell viability, CCK-8",72 h,7.67 ± 0.39
Cc1cc(C#N)cc(C)c1Oc1cc(Nc2ccc(C#N)cc2)nc2ccncc12,H69AR (multidrug resistant),,48 h,> 128
COc1ccc(-c2cc(=O)c3c(O)cc(O[C@@H]4O[C@H](CO)[C@@H](O)[C@H](O)[C@H]4O)cc3o2)cc1OC,HCT-116 p53+/+,"cell viability, resazurin reduction",72 h,> 100
O=c1ccn([C@@H]2O[C@H](CO)[C@@H](O)[C@H](F)[C@H]2O)c(=O)[nH]1,FM3A,cell growth or viability,,> 200
Cc1cnc2c(ccc3c(C)c(C)cnc32)c1C.O=C([O-])Cc1ccccc1Nc1c(Cl)cccc1Cl.O=C([O-])Cc1ccccc1Nc1c(Cl)cccc1Cl.[Mn+2],HMLER-shEcad,"mammosphere viability, resazurin",,3 ± 0.1
CC(C)C1OC(=O)C(NC(=O)c2cccc(O)c2)C(C)OC(=O)C(C(C)C)OC(=O)C(C)(C)C(=O)C(Cc2ccccc2)OC1=O (stereo not drawn),NCM460,"cell growth or viability, CCK-8",72 h,> 50
N#Cc1cccc(-c2ccc(=O)n(Cc3cccc(-c4ncc(OCC5CCN(CCCCC(=O)Nc6cccc7c6C(=O)N(C6CCC(=O)NC6=O)C7=O)CC5)cn4)c3)n2)c1 (stereo not drawn),Hs746T,"cell growth or viability, CCK-8",72 h,0.0763
CC(=O)O[C@H]1CC[C@]2(C)[C@H]3CC=C4[C@@H]5[C@@H](C)[C@H](C)CC[C@]5(C(=O)O)CC[C@@]4(C)[C@]3(C)CC[C@H]2C1(C)C,HELF,"cell growth or viability, MTT",24 h,54.5
CC(=O)OC[C@H]1O[C@@H](Oc2ccc(C#[C][Pt+])cc2)[C@H](OC(C)=O)[C@@H](OC(C)=O)[C@@H]1OC(C)=O.O=S(=O)([O-])C(F)(F)F.c1ccc(-c2cccc(-c3ccccn3)n2)nc1,PLC,cell growth or viability,72 h,24.2
N#Cc1cccc(-c2ccc(=O)n(Cc3cccc(-c4ncc(OCC5CCN(CCCCCCC(=O)Nc6cccc7c6C(=O)N(C6CCC(=O)NC6=O)C7=O)CC5)cn4)c3)n2)c1 (stereo not drawn),Hs746T,"cell growth or viability, CCK-8",72 h,0.0968
COC(=O)[C@H]1[C@H]2C[C@H]3O[C@@]4(CCN3C[C@H]2C[C@@H](OC(=O)c2cc(OC)c(OC)c(OC)c2)[C@@H]1OC)C(=O)Nc1cc(OC)c(-c2ccc(C)cc2)cc14,SUP-T1,"cell growth or viability, trypan blue",72 h,4.72
CCCC(CCC)C(=O)[O][Pt]([Cl])([Cl])[O]C(C)=O.N.N,seven cancer cell lines,cytotoxicity,mean over panel,5.4
COc1ccc(C[C@H]2COC(=O)[C@@H]2Cc2ccc(OCCCCCCCCCC(=O)NO)c(OC)c2)cc1OC,KU812,"cell growth or viability, CCK-8",48 h,> 5
N#Cc1c(-c2ccc(Cl)cc2)cc(-c2cccc3ccccc23)nc1NNC(=O)Cc1ccccc1,U-937,"cell growth or viability, MTT",72 h,0.422
N[C@@H](CCC(=O)N[C@@H](CS[Se]Cc1ccc(-c2cc(C(F)(F)F)nn2-c2ccc(S(N)(=O)=O)cc2)cc1)C(=O)NCC(=O)O)C(=O)O,FF2441 human fibroblasts,"cell viability, MTS",72 h,36.3 ± 5.6
CCOC(=O)C/C(C)=N/NC(=O)c1nc2ccccc2n(C)c1=O,"MCF7, HepG2 and HCT-116","cell growth, MTT",range over three lines,> 10
C=C1C(=O)OC2C1CCC1(C)CC1CCC1(C)OC21 (stereo not drawn),"B140H murine AML, cytarabine-resistant","cell growth, inhibitor",,5.9 ± 2.4
O=C1c2ccc3c4cccc5c(N6CCNCC6)ccc(c6ccc(c2c36)C(=O)N1CCN1CCCCC1)c54,"A549, PC-3, HL-60","cytotoxicity, SRB","72 h, range over three lines",36.9 to 50.9
Cc1cc(C=O)cc(C)c1Oc1cc(Nc2ccc(C#N)cc2)nc2cnccc12,H69AR (multidrug resistant),,48 h,> 127
COC(=O)[C@H]1[C@H]2C[C@H]3O[C@@]4(CCN3C[C@H]2C[C@@H](OC(=O)c2cc(OC)c(OC)c(OC)c2)[C@@H]1OC)C(=O)Nc1cc(OC)c(-c2ccc(C(F)(F)F)cc2)cc14,SUP-T1,"cell growth or viability, trypan blue",72 h,3.64
CC(C)(C)c1nc(-c2ccc(NC(=O)c3cccs3)cc2Cl)no1,MRC5 lung fibroblasts,"cytotoxicity, LDH release",,> 30
Cn1[c]([Ir-3]234([NH3+])[n]5c6ccc5C(c5c(F)c(F)c(F)c(F)c5F)=C5C=CC(=[N+]52)C(c2c(F)c(F)c(F)c(F)c2F)=c2ccc([n]23)=C(c2c(F)c(F)c(F)c(F)c2F)C2=[N+]4C(=C6c3c(F)c(F)c(F)c(F)c3F)C=C2)[n+](C)c2ccccc21.F[P-](F)(F)(F)(F)F,HCC827,"cell growth or viability, MTT",72 h,0.55
Nc1ncnc2c1ncn2[C@@H]1O[C@H](CSSc2ccccn2)[C@@H](O)[C@H](F)[C@H]1O,FM3A,cell growth or viability,,≥ 500
O=C(O)/C(Cc1ccccc1[N+](=O)[O-])=N\Nc1nc2c(s1)CS(=O)(=O)c1c-2ccc(Cl)c1Cl,CRL-2351,"cell growth, sulforhodamine B",5 days,> 20
CC(C)Cc1ccc(C(C)C(=O)[O][Pt]([NH2])([NH2])([Cl])([Cl])[O]C(=O)CCCc2ccccc2)cc1 (stereo not drawn),six human cancer lines,"cytotoxicity, MTT",,1.46
CCCCCCCCC=CCCCCCCCC(=O)OCC1OC(n2ccc(N)nc2=O)C(F)(F)C1O (stereo not drawn),L1210/L5 (mouse),"cell growth, cell counting",72 h,0.0033 ± 0.0019
N=C(N)Nc1nc2ccccc2s1,BPH-1,"cell growth or viability, MTT",24 h,> 500
CC/C(=C(\c1ccc(O)cc1)c1ccc(OCCN(C)CCOCCN(C)CCOc2ccc(/C(=C(/CC)c3ccccc3)c3ccc(O)cc3)cc2)cc1)c1ccccc1,MDA-MB-231 (ER-negative),cell growth,96 h,> 20
O=S(=O)([O-])[O-].[Cu+2].c1ccc(-c2nnc(-c3ccc4c(c3)OCO4)[nH]2)nc1,T24,"cell growth or viability, MTT",24 h,5.46
COC1CCC(Nc2nc(-c3nccn3C)nc3sc(-c4ccn(C)n4)c(-c4ccccc4)c23)C1 (stereo not drawn),PANC-1 (KRAS G12D),"Western blot, refers to: phospho-Akt","6 h, with: EGF 15 min",~7
CN1CCN(c2ccc(Nc3ncc(Cl)c(Nc4ccccc4P(C)(C)=O)n3)cc2Br)CC1,BaF3 EGFR 19del/T790M,"cell growth, inhibitor, CCK-8",72 h,0.09
O=C(O)C(Cc1ccccc1[N+](=O)[O-])=NNc1nc2c(s1)CS(=O)(=O)c1cc(Cl)c(Cl)cc1-2 (mixture of isomers),CRL-2351,"cell growth, sulforhodamine B",5 days,> 20
O=C1CCC(N2C(=O)c3cccc(NCC(=O)N4CCN(c5ccc(Nc6nc(Oc7ccccc7)c7occc7n6)cc5)CC4)c3C2=O)C(=O)N1 (stereo not drawn),Mino,,72 h,0.016
C=C[CH2][Pd-]([Cl])[Cl].CC(C)c1cccc(C(C)C)c1-n1c[n+](-c2c(C(C)C)cccc2C(C)C)c2c1-c1cccc3cccc-2c13,CHO,"cell growth or viability, MTT",72 h,9
CC/C(=C(\c1ccc(O)cc1)c1ccc(OCCN(C)CCOCCOCCOCCOCCOC)cc1)c1ccccc1,MDA-MB-231 (ER-negative),cell growth,96 h,2.17
CC(C)=CCC1=C([O-])C(=O)c2ccccc2C1=O.O=[N+]([O-])[O-].[Cu+2].c1ccc(-c2cccc(-c3ccccn3)n2)nc1,HOS,"cell viability, MTT",24 h,42.8 ± 3.3
CCC(C)C1OC(=O)C(C)(C)C(=O)C(Cc2ccccc2)OC(=O)C(C(C)C)OC(=O)C(NC(=O)c2cccc(O)c2)C(C)OC1=O (stereo not drawn),NCM460,"cell growth or viability, CCK-8",72 h,> 50
CN(C)CCCS(=O)(=O)NC12CCCC(C)(CCC3C1CC3(C)C)C2 (stereo not drawn),NCM460,"cell growth or viability, CCK-8",72 h,22.7
Cc1cn([C@@H]2O[C@H](CSSC[C@H]3O[C@@H](n4cc(C)c(=O)[nH]c4=O)[C@H](O)[C@@H](F)[C@@H]3O)[C@@H](O)[C@H](F)[C@H]2O)c(=O)[nH]c1=O,FM3A,cell growth or viability,,> 500
CN1CCCNC(=O)CC2(CCCCC2)CC(=O)NCCCN(C)CCCNc2cccc3c2C(=O)c2cccc(c2C3=O)NCCC1,ASF-4-4L2,"cell proliferation, CCK-8",48 h,> 20
C#Cc1cc(C(=O)C2=C(C)C(=O)c3ccccc3C2=O)ccc1C(F)(F)F,MRC-5,cytotoxicity,,25.8
CNCCNC(=O)c1cn(C23CCCC(C)(CCC4C2CC4(C)C)C3)nn1 (stereo not drawn),NCM460,"cell growth or viability, CCK-8",72 h,33.7

# Repeated from above:
SMILES,cell line,assay,conditions,IC50 [µM]
Cn1[c]([Ir-3]234([NH3+])[n]5c6ccc5C(c5c(F)c(F)c(F)c(F)c5F)=C5C=CC(=[N+]52)C(c2c(F)c(F)c(F)c(F)c2F)=c2ccc([n]23)=C(c2c(F)c(F)c(F)c(F)c2F)C2=[N+]4C(=C6c3c(F)c(F)c(F)c(F)c3F)C=C2)[n+](C)c2ccccc21.F[P-](F)(F)(F)(F)F,HCC827,"cell growth or viability, MTT",72 h,0.55
Nc1ncnc2c1ncn2[C@@H]1O[C@H](CSSc2ccccn2)[C@@H](O)[C@H](F)[C@H]1O,FM3A,cell growth or viability,,≥ 500
O=C(O)/C(Cc1ccccc1[N+](=O)[O-])=N\Nc1nc2c(s1)CS(=O)(=O)c1c-2ccc(Cl)c1Cl,CRL-2351,"cell growth, sulforhodamine B",5 days,> 20
CC(C)Cc1ccc(C(C)C(=O)[O][Pt]([NH2])([NH2])([Cl])([Cl])[O]C(=O)CCCc2ccccc2)cc1 (stereo not drawn),six human cancer lines,"cytotoxicity, MTT",,1.46
CCCCCCCCC=CCCCCCCCC(=O)OCC1OC(n2ccc(N)nc2=O)C(F)(F)C1O (stereo not drawn),L1210/L5 (mouse),"cell growth, cell counting",72 h,0.0033 ± 0.0019
N=C(N)Nc1nc2ccccc2s1,BPH-1,"cell growth or viability, MTT",24 h,> 500
CC/C(=C(\c1ccc(O)cc1)c1ccc(OCCN(C)CCOCCN(C)CCOc2ccc(/C(=C(/CC)c3ccccc3)c3ccc(O)cc3)cc2)cc1)c1ccccc1,MDA-MB-231 (ER-negative),cell growth,96 h,> 20
O=S(=O)([O-])[O-].[Cu+2].c1ccc(-c2nnc(-c3ccc4c(c3)OCO4)[nH]2)nc1,T24,"cell growth or viability, MTT",24 h,5.46
